Measurements pooled from the literature.
Each line is one published result; not all experiments were run side by side.
Cell line: MDA-MB-231

SMILES	assay	test system	setting	how to read	measurement	value
CCCCCCCCCCCCCCCOC(=O)/C=C/c1cccc(O)c1	AO-PI flow cytometry		IC50, 24 h		early apoptotic cells	23.9%
C=C1C(=O)OC2CC3=C[C@@H](C/C(C)=C/C(OC(=O)Cc4cccc5ccccc45)[C@H]12)OC3=O (stereo partly shown)	flow cytometry		3.8 µM, 48 h		sub-G1 cells	21.4%
CC1OC2OC3C4=C(OC3(C)C12O)C(=O)c1c(O)cccc1C4=O (stereo not shown)	annexin V/PI flow cytometry		8 µg/mL, 48 h		late apoptotic cells	19.2%
CC12CCC3c4ccc(OCCCOc5no[n+]([O-])c5S(=O)(=O)c5ccccc5)c(Br)c4CCC3C1CCC2O (stereo not shown)	western blot		80 nM, 24 h		ERK1/2 protein level	decreased
N=C(N)NCCC[C@H](NC(=O)[C@H](Cc1c[nH]c2ccccc12)NC(=O)[C@H](CCC(N)=O)NC(=O)[C@@H](N)Cc1c[nH]c2ccccc12)C(=O)N[C@@H](Cc1c[nH]c2ccccc12)C(=O)N[C@@H](CCC(N)=O)C(=O)N[C@@H](Cc1c[nH]c2ccccc12)C(N)=O				baseline: fibroblast IC50 over MDA-MB-231 IC50	selectivity ratio	0.3
CC(=O)N[C@@H](Cc1ccc(O)cc1)CN(CC(=O)N[C@@H](CCCCN)CN(CC(=O)N[C@@H](Cc1ccccc1)CN(CC(=O)N[C@H]1CCCCNc2c(F)c(F)c(c(F)c2F)S(=O)(=O)c2c(F)c(F)c(c(F)c2F)NCCCC[C@@H](CN(CC(=O)N[C@@H](C)CN(CC(N)=O)S(C)(=O)=O)S(C)(=O)=O)NC(=O)CN(S(=O)(=O)CC(C)C)C[C@H](Cc2ccccc2)NC(=O)CN(S(=O)(=O)CCN)C1)S(=O)(=O)CC(C)C)S(=O)(=O)CCN)S(C)(=O)=O	cell growth or viability, CCK-8		72 h		GI50	7.95 µM
N=C(N)NCCC[C@H](NC(=O)[C@H](Cc1c[nH]c2ccccc12)NC(=O)[C@H](CCC(N)=O)NC(=O)[C@H](Cc1c[nH]c2ccccc12)NC(=O)[C@H](CCCNC(=N)N)NC(=O)[C@H](Cc1c[nH]c2ccccc12)NC(=O)[C@H](CCC(N)=O)NC(=O)[C@@H](N)Cc1c[nH]c2ccccc12)C(N)=O				baseline: erythrocyte IC50 over MDA-MB-231 IC50	selectivity ratio	> 1
CCC(=C(c1ccc(O)cc1)c1ccc(Cl)cc1)c1ccc(OC)cc1					GI50	1.3 µM
C[C@H]1O[C@@H]2C3=C(O[C@]2(C)[C@@]1(O)C=O)C(=O)c1c(O)cccc1C3=O	cell growth or viability, MTT		48 h		EC50	2.59 µg/mL
CCC(C(=O)O)C1CCC(C)C(C(C)C(O)C(C)C(=O)C(CC)C2OC3(C=CC(=O)C4(CCC(C)(C5CCC(O)(CC)C(C)O5)O4)O3)C(C)CC2C)O1 (stereo not shown)	MTT		together with: benzhydroxamic acid 284.0 µM		combination index	2.7
OC(c1cccc(C(F)(F)F)c1)c1c[nH]c2ncc(C(F)(F)F)cc12 (stereo not shown)	cell growth or viability		10 µM, 72 h		inhibition	23%
CC(=O)c1cccc(NC2C(N)C(NC(=O)N(C)C)(C(C)O)C(O)C2(O)COC(=O)c2c(C)cccc2O)c1 (stereo not shown)	cell growth or viability				EC50	0.05 µM
OCc1ccc(-c2cc(C(F)(F)F)cc(C(F)(F)F)c2)o1	cell growth or viability, MTT		100 µM, 48 h		inhibition	94.8%
CCCCCCCCCCCCCCCOC(=O)/C=C/c1cc(O)c(O)c(OC)c1	propidium iodide flow cytometry		concentration not given, 24 h		cells in G1 phase	54.2%
C=CCc1ccc(OC(C)=O)c(OC)c1	cell growth or viability, MTT				IC20	50 µM
N=C(N)NCCC[C@H](NC(=O)[C@H](Cc1c[nH]c2ccccc12)NC(=O)[C@H](CCC(N)=O)NC(=O)[C@H](Cc1c[nH]c2ccccc12)NC(=O)[C@@H](N)CCCNC(=N)N)C(=O)N[C@@H](Cc1c[nH]c2ccccc12)C(=O)N[C@@H](CCC(N)=O)C(=O)N[C@@H](Cc1c[nH]c2ccccc12)C(N)=O				baseline: fibroblast IC50 over MDA-MB-231 IC50	selectivity ratio	1
C/C(=N\N(c1ccccc1)c1ccccc1)c1ccc(O)cc1	Western blot		concentration not given, 48 h, together with: estradiol 1 nM		cyclin A protein level	decreased
OC(c1cccc(OC(F)(F)F)c1)c1c[nH]c2ncc(C(F)(F)F)cc12 (stereo not shown)	cell growth or viability		10 µM, 72 h		inhibition	12%
Nc1cc(-c2cc(-c3ccccc3)c(C(F)(F)F)s2)n[nH]1	cell growth or viability, MTT		100 µM, 48 h		inhibition	99.2%
C=C[C@H](OC(C)=O)c1ccc(OC(C)=O)cc1	Western blot, item: phospho-Akt/Akt		concentration not given, 24 h		phospho-Akt reduction	70 to 94%
Cc1[nH]nc2c1N=C(c1ccccc1Cl)c1cnc(N3CCOCC3)cc1N2	Western blot		concentration not given, 24 h		STAT3 phosphorylation	inhibited
N=C(N)NCCC[C@H](NC(=O)[C@H](Cc1c[nH]c2ccccc12)NC(=O)[C@H](CCC(N)=O)NC(=O)[C@H](Cc1c[nH]c2ccccc12)NC(=O)[C@H](CCCNC(=N)N)NC(=O)[C@H](Cc1c[nH]c2ccccc12)NC(=O)[C@H](CCC(N)=O)NC(=O)[C@H](Cc1c[nH]c2ccccc12)NC(=O)[C@@H](N)CCCNC(=N)N)C(N)=O				baseline: MCF-12 IC50 over MDA-MB-231 IC50	selectivity ratio	> 1.3

SMILES	assay	test system	setting	how to read	measurement	value
CCCCCCCCCCCCCC(=O)N1CCC[C@H]1C(=O)N[C@@H](CO)C(=O)N[C@@H](CCC(N)=O)C(=O)N[C@@H](CO)C(=O)N[C@@H](CCCCNC(=O)c1ccc(Br)cc1)C(=O)N[C@@H](CO)C(=O)N[C@@H](CCCCNC(=O)c1ccc(Br)cc1)C(=O)N[C@@H](C)C(=O)O	annexin V/PI flow cytometry		200 µM, 48 h		apoptotic cells	61%
CN[C@@H](C)C(=O)N[C@H]1CN(C(=O)Cc2ccccc2)CC[C@H]2CC[C@@H](C(=O)NCc3ccc(Br)cc3)N2C1=O	apoptosis, annexin V/PI flow cytometry		24 h		minimum effective concentration	100 to 300 nM
C=CC(OC(C)=O)c1ccc(OC(C)=O)c(OC)c1 (stereo not shown)	Western blot, item: phospho-Akt/Akt		concentration not given, 24 h		phospho-Akt reduction	70 to 94%
Cc1ccc(C(C)C)cc1.O=C(N=P(c1ccccc1)(c1ccccc1)c1ccccc1)c1ccccn1.[Cl-].[Cl][Ru+]	PI flow cytometry		IC20, 24 h		G2/M cells	24%
CN[C@@H](C)C(=O)N[C@H]1CN(C(=O)Cc2ccccc2)CC[C@H]2CC[C@@H](C(=O)NCc3ccc(C(F)(F)F)cc3)N2C1=O	cIAP1 degradation, western blot, item: cIAP1		24 h		onset concentration	> 100 nM
CC1(C)C(=CC=C2CCCC(C=CC3=[N+](CCCCCC(=O)O)c4ccccc4C3(C)C)=C2c2ccccc2)N(CCCCCC(=O)O)c2ccccc21	flow cytometry	serum-free medium	20 µM, together with: 250 µM bromosulfophthalein pre-block		uptake decrease	40 to 50%
COc1ccc(C=CC(=O)c2cccc(O)c2)cc1	flow cytometry PI		50 µM, 48 h		S phase cells	30.5%
Cc1ccc2c(n1)c1nc(C)ccc1c1nc3cc4ccccc4cc3nc21.[Ru+2].c1ccc(-c2cccc(-c3ccccn3)n2)nc1.c1ccncc1				baseline: dark EC50 over light EC50	phototherapeutic index	7.4
CC(=O)O[C@H]1C(=O)[C@]2(C)[C@@H](OC(=O)[C@H](N)CSC3CC(=O)N(CCC(=O)Nc4ccc(-c5ccc(/N=N/c6ccc7c(S(=O)(=O)O)cc(S(=O)(=O)O)c(N)c7c6O)c(C)c5)cc4C)C3=O)C[C@H]3OC[C@@]3(OC(C)=O)[C@H]2[C@H](OC(=O)c2ccccc2)[C@]2(O)C[C@H](OC(=O)[C@H](O)[C@@H](NC(=O)c3ccccc3)c3ccccc3)C(C)=C1C2(C)C (stereo partly shown)	annexin V/PI flow cytometry		concentration not given, 24 h		late apoptotic cells	27.5%
CC(=O)O[C@H]1C2=C(C(=O)C(O)=C(C(C)C)C2=O)[C@@]2(C)CCCC(C)(C)[C@@H]2[C@@H]1O	cell growth or viability, SRB		48 h		GI50	> 100 µM
CC1(C)C(=CC=C2C[N+](C)(C)CC(C=CC3=[N+](CCCCCC(=O)O)c4ccccc4C3(C)C)=C2c2ccccc2)N(CCCCCC(=O)O)c2ccccc21			serum-free medium, together with: BSP 250 µM		cellular uptake	increased
COc1cc(Cc2c[nH]c3ncc(C(F)(F)F)cc23)cc(OC)c1	cell growth or viability		10 µM, 72 h		inhibition	22%
CC/C=C\C/C=C\C/C=C\C/C=C\C/C=C\C/C=C\CCC(=O)Nc1ccn(C2OC(CO)C(O)C2(F)F)c(=O)n1 (stereo not shown)	NCI-60 screen				GI50	6.82 µM
FC(F)(F)c1ccc(Cc2c[nH]c3ncc(C(F)(F)F)cc23)cc1	cell growth or viability		10 µM, 72 h		inhibition	20%
C=CC(OC(C)=O)c1cc(OC)c(OC(C)=O)c(OC)c1 (stereo not shown)	Western blot		IC50, 24 h	baseline: untreated	Bcl-2 protein decrease	40 to 50%
COc1cc(OC)cc(C(O)c2c[nH]c3ncc(C(F)(F)F)cc23)c1 (stereo not shown)	cell growth or viability		10 µM, 72 h		inhibition	13%
Clc1ccc2ccc3[n+](c2c1)[Ir-3]12([c]4ccccc4-3)([c]3ccccc3-c3ccc4ccc(Cl)cc4[n+]31)[n+]1ccccc1-c1cccc[n+]12.F[P-](F)(F)(F)(F)F	qPCR, item: c-Myc		3 µM		mRNA level	inhibited
Fc1ccc(F)c(Cc2c[nH]c3ncc(C(F)(F)F)cc23)c1	cell growth or viability		10 µM, 72 h		inhibition	14%
O=C(Cc1ccccc1)Nc1nc2ccccc2n1Cc1ccccc1	inhibitor, western blot		concentration not given, hypoxia 1% oxygen		HIF-1α accumulation	no inhibition
Cc1ccc(C(C)C)cc1.O=C(N=P(c1ccccc1)(c1ccccc1)c1ccccc1)c1ccccn1.[Cl-].[Cl-].[Ru+2]	MTT			baseline: IC50 RPTC over IC50 MDA-MB-231	selectivity ratio	5.3 fold
CC(=O)c1cccc(NC2C(NC(=O)OCc3ccccc3)C(NC(=O)N(C)C)(C(C)O)C(C)(O)C2(O)COC(=O)c2c(C)cccc2O)c1 (stereo not shown)	cell growth or viability				EC50	10.4 µM

For quick reference, copied from above:
SMILES	assay	test system	setting	how to read	measurement	value
CCCCCCCCCCCCCC(=O)N1CCC[C@H]1C(=O)N[C@@H](CO)C(=O)N[C@@H](CCC(N)=O)C(=O)N[C@@H](CO)C(=O)N[C@@H](CCCCNC(=O)c1ccc(Br)cc1)C(=O)N[C@@H](CO)C(=O)N[C@@H](CCCCNC(=O)c1ccc(Br)cc1)C(=O)N[C@@H](C)C(=O)O	annexin V/PI flow cytometry		200 µM, 48 h		apoptotic cells	61%
CN[C@@H](C)C(=O)N[C@H]1CN(C(=O)Cc2ccccc2)CC[C@H]2CC[C@@H](C(=O)NCc3ccc(Br)cc3)N2C1=O	apoptosis, annexin V/PI flow cytometry		24 h		minimum effective concentration	100 to 300 nM
C=CC(OC(C)=O)c1ccc(OC(C)=O)c(OC)c1 (stereo not shown)	Western blot, item: phospho-Akt/Akt		concentration not given, 24 h		phospho-Akt reduction	70 to 94%
Cc1ccc(C(C)C)cc1.O=C(N=P(c1ccccc1)(c1ccccc1)c1ccccc1)c1ccccn1.[Cl-].[Cl][Ru+]	PI flow cytometry		IC20, 24 h		G2/M cells	24%
CN[C@@H](C)C(=O)N[C@H]1CN(C(=O)Cc2ccccc2)CC[C@H]2CC[C@@H](C(=O)NCc3ccc(C(F)(F)F)cc3)N2C1=O	cIAP1 degradation, western blot, item: cIAP1		24 h		onset concentration	> 100 nM
CC1(C)C(=CC=C2CCCC(C=CC3=[N+](CCCCCC(=O)O)c4ccccc4C3(C)C)=C2c2ccccc2)N(CCCCCC(=O)O)c2ccccc21	flow cytometry	serum-free medium	20 µM, together with: 250 µM bromosulfophthalein pre-block		uptake decrease	40 to 50%
COc1ccc(C=CC(=O)c2cccc(O)c2)cc1	flow cytometry PI		50 µM, 48 h		S phase cells	30.5%
